Experimental data from different studies.
Every numbered part comes from another study and shows a few of its results, in no order.

Set 1 — method: protein binding microarray; molecule type: double-stranded DNA, one strand shown; medium: in vitro; concentration: not given; relative to: not given; reading: higher = stronger binding
Target: Histone acetyltransferase KAT6A, both winged helices, GST fusion (KAT6A, Homo sapiens, UniProt Q92794, residues 1-181)
Setting: 8-mer, flanks averaged, mean of 2 arrays, mostly near background
Target sequence (chain): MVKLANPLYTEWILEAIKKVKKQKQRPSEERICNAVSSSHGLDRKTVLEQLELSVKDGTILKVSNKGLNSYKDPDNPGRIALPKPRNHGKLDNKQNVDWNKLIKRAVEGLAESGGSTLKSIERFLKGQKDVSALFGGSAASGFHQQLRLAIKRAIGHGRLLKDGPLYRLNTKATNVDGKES
Oligonucleotide	E-score
CCCATATA	0.0381
ATGCCAAA	-0.262
CTGTGGCA	-0.218
ATGTCCCA	-0.0998
CGGCGGGA	0.331
AACCATTC	0.0204
CGGCACTC	0.136
AGGCTGAC	-0.131
TCAATAAA	-0.129
AGAGAGCA	-0.118
AGACACCG	-0.0475
TACGGAAA	0.24
CCGTGCTC	0.158
ATCGAAAA	-0.0474
AACTGGCC	-0.077
GGGTTAAC	0.112
GACGTCTC	-0.0326

Set 2 — method: protein-binding microarray; molecule type: double-stranded DNA, one strand shown; medium: in vitro; concentration: not given; reading: higher = stronger binding
Target: Protein C-ets-1 (ETS1, Homo sapiens, UniProt P14921, residues 1-441, full length assumed)
Setting: k-mer, scored over probes, only values ≥0.25
Residues (chain): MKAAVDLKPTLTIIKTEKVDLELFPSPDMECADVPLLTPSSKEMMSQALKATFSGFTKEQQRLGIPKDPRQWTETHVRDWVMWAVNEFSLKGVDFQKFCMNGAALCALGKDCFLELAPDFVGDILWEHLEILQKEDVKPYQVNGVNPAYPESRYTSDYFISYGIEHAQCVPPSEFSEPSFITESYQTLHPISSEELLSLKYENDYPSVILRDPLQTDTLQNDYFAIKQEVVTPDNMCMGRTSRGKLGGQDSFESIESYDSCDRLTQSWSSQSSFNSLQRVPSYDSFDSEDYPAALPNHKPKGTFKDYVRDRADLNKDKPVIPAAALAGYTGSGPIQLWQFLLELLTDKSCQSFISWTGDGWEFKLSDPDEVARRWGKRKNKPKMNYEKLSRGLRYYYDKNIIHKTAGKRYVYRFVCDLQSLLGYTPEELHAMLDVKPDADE
Oligonucleotide	E-score
AGGGAGGG	0.285
GATGTGTA	0.258
ATCCGGCA	0.465
CCGGTAAG	0.364
CTAGCGGA	0.271
AACAGGAA	0.455
AGTACTTC	0.32
TCCTGGAA	0.383
CCCAGGAA	0.37
CTTCCGGA	0.491
CCTCATCC	0.332
ACTTCCAG	0.428

Set 3 — method: protein-binding microarray; molecule type: double-stranded DNA, one strand shown; medium: in vitro; concentration: 2200 nM top; setting: 60-bp whole probe; with: salmon DNA 0.4 mg/ml; relative to: random background probes; reading: higher = stronger binding; all sequences stand within: GCCTAGCAC … GTCTTGATTCGCTTGACGCTGCTG
Target: Interferon regulatory factor 7, full length, phosphomimetic (IRF7, Homo sapiens, UniProt Q92985, residues 1-503, S471D/S472D/S475D/S476D/S477D/S483D/S484D/S487D)
Construct (chain): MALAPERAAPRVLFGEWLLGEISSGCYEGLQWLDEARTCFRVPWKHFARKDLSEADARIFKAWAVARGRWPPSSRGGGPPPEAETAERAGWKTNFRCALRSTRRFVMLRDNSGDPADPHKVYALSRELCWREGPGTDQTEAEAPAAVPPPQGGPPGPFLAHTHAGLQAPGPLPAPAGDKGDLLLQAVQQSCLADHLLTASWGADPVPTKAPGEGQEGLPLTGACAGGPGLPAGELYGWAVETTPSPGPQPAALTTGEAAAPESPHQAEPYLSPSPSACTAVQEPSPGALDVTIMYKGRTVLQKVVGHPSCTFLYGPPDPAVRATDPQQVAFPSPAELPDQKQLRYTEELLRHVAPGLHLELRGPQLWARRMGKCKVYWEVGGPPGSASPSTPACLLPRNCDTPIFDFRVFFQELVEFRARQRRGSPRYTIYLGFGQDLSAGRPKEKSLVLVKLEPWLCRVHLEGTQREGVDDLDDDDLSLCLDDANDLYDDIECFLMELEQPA
Oligonucleotide	fitted relative affinity [z-score]
TCAATTTTCTCTGTTCTACTGTGCTAG	1.73
GACGATCTCAGACTTGAGACGTGCTAG	-0.0539
ACTTGTATTTGTCCCTATTTGTGCTAG	2.33
TCAGTTGTGATTCTTTCACTGTGCTAG	1.52
GAGGGTTTCGGTTCCGGGACGTGCTAG	8.71
TTAGGACAGGGTTTCGGTTAGTGCTAG	3.2
TTTAAAGAACCCACTATCTTGTGCTAG	-0.136
TTTGGACTGGGTCTCGGTTAGTGCTAG	0.129
TTTTTTTTTTTTTTACTTCGGTGCTAG	2.17
TTAGGTTTCCTTTCCCTTTTGTGCTAG	4.86
GACGATATCAGTCTAGAGACGTGCTAG	0.114
TTAGGTATCCTTACCCTTTAGTGCTAG	0.812
GACGTTTTCCTACTGCTGACGTGCTAG	2.38
GACGATATCGGGTATCGAGGCGTGCTA	-0.0884

Other studies, line by line
Substance	target	test	test system	conditions	how to read	quantity	result
PhoQ, residues 284 288 289 292 302 303 SNGLAW	PhoP, residues 12 14 15 18 19 IQFRS (Escherichia coli, UniProt P23836)	Sort-seq, measured: YFP reporter	E. coli	PhoQ-PhoP variant library, with: 10 µM Mg2+	relative to: high Mg2+ state, higher = stronger signaling	fold induction	9.69
